Measured values gathered from unrelated publications.
Lines come from different studies, so protocols differ.
CDC42BPB: Serine/threonine-protein kinase MRCK beta (CDC42BPB, Homo sapiens, UniProt Q9Y5S2)
Sequence of UniProt Q9Y5S2 (whole entry, looked up): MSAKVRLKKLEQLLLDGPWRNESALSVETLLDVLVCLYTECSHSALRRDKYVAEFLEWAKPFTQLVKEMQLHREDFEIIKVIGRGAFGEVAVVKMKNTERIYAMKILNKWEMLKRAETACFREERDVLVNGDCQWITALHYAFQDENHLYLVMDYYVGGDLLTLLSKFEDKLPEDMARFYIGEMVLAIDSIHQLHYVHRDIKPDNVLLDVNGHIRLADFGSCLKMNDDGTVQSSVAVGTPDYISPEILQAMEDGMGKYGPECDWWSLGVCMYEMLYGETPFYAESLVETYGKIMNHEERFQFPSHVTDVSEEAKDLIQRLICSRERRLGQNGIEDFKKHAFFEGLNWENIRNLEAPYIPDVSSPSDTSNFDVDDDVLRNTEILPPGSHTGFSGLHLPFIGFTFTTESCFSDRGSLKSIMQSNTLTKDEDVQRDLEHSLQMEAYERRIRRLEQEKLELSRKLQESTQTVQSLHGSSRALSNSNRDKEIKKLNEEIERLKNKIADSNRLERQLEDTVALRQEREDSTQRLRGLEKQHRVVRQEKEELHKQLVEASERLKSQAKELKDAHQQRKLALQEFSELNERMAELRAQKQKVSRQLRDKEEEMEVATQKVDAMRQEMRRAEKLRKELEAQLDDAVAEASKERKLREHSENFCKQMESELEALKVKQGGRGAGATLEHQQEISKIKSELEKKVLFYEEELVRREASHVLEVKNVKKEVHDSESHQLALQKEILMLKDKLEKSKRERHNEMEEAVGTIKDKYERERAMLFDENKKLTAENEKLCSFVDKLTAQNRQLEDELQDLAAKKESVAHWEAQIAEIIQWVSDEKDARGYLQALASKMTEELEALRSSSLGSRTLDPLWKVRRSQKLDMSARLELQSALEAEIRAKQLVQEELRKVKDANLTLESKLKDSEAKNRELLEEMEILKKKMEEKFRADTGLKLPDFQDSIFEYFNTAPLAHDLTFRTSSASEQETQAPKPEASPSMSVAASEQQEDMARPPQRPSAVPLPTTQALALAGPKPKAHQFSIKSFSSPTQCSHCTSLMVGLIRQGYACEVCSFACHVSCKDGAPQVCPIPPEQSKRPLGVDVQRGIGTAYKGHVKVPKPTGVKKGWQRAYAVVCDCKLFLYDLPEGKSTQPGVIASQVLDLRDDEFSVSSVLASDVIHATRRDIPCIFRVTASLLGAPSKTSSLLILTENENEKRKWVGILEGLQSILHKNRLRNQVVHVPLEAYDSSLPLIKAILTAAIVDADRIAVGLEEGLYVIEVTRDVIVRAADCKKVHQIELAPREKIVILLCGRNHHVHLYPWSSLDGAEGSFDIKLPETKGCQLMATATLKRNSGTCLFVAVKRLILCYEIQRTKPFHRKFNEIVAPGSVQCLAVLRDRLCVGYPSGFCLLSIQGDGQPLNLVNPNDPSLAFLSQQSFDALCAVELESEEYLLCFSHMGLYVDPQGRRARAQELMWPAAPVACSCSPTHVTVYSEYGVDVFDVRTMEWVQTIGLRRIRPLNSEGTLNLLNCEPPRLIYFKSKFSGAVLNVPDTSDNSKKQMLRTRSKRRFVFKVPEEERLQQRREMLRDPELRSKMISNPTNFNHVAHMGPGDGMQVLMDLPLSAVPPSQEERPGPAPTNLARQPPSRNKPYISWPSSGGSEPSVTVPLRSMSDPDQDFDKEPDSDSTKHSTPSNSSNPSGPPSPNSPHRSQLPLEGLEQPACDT
Sequence of UniProt Q9Y2H9 (whole entry, looked up): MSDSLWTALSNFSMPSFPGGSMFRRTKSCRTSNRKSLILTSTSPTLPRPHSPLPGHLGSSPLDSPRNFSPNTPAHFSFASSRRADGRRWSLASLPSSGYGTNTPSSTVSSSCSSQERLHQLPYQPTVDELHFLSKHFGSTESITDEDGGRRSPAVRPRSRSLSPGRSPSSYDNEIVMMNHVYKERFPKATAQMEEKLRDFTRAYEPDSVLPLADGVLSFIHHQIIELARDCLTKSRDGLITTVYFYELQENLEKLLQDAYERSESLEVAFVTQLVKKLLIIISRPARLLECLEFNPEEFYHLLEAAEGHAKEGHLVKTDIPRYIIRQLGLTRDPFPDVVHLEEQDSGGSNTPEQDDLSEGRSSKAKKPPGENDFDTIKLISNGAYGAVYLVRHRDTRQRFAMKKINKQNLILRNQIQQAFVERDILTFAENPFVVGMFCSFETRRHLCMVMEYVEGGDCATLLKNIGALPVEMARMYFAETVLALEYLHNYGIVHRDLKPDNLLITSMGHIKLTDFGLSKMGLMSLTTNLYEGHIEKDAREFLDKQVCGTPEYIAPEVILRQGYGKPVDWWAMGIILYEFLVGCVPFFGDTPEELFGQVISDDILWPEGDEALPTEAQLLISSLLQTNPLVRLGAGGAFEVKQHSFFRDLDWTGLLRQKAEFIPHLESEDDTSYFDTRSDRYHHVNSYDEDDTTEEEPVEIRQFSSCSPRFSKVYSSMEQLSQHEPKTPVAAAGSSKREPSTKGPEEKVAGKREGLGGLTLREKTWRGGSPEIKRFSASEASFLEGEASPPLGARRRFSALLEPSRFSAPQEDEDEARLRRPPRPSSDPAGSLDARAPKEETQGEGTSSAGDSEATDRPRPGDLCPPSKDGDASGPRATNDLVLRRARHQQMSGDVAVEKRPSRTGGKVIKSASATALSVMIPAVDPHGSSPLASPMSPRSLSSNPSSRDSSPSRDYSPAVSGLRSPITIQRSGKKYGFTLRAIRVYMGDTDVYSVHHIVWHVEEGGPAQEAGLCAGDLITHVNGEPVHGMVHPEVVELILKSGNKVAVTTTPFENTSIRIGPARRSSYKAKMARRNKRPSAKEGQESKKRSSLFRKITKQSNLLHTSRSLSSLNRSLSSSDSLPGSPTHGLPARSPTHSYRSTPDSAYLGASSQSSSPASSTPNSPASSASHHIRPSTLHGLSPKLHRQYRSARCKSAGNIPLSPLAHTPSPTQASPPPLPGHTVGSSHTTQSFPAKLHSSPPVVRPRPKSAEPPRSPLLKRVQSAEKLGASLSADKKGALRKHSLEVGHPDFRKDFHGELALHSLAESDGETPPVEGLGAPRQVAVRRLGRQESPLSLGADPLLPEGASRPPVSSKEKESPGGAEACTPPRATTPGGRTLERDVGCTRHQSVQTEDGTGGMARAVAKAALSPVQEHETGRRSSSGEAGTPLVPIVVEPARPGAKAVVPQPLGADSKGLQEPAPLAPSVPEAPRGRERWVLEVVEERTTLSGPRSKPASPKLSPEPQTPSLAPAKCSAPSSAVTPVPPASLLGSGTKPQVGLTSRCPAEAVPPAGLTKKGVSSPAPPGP
Sequence of UniProt Q9UKI8 (whole entry, looked up): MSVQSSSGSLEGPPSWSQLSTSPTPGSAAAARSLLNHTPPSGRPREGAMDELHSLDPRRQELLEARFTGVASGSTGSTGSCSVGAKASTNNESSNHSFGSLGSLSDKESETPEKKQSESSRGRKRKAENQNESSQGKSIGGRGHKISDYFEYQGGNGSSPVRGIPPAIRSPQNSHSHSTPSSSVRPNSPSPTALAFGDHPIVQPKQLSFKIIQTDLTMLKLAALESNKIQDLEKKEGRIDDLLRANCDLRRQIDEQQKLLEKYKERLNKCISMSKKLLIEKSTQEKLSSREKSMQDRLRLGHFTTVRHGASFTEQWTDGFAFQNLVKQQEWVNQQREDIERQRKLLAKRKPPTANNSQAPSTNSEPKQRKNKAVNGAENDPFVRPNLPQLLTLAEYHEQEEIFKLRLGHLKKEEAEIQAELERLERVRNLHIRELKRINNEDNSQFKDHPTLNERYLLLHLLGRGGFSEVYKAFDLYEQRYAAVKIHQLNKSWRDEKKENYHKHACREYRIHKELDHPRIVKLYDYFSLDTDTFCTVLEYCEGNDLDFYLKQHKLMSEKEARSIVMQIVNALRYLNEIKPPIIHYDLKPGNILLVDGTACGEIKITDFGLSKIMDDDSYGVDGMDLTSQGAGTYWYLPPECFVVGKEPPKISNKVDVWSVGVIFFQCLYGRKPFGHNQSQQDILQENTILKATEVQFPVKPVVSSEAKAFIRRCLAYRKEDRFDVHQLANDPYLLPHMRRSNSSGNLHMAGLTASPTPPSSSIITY

| Compound | target or system | assay | test system | conditions | endpoint | value |
| --- | --- | --- | --- | --- | --- | --- |
| Nc1ncc(-c2nc(N3CCOCC3)nc(N3CCOCC3)n2)c(C(F)F)n1 | TLK1 (Homo sapiens, UniProt Q9UKI8) | binding, competition with immobilised ligand |  | 10 µM | remaining binding | 92% |
| COC(=O)c1cc(-c2cccc(NC(=S)Nc3cccc(Cl)c3)c2)on1 | Pseudomonas aeruginosa | microbial growth, broth dilution | ATCC27853 |  | MIC | > 64 µg/mL |
| CC(C)(C)c1cccc(C=Nc2ccc(SCc3cc(=O)c(O)co3)cc2)c1 |  | DPPH scavenging, absorbance |  | 30 min | IC50 | 37.2 µM |
| Nc1ncnc2c([C@@H]3N[C@H](CO)[C@@H](O)[C@H]3O)c[nH]c12 | unidentified influenza virus | viral replication, inhibitor | MDCK | 94.7 µM | inhibition | 97.6% |
| COc1cnc(OC)n2nc(NS(=O)(=O)c3c(OCC(F)F)cccc3C(F)(F)F)nc12 | L02 | cell growth or viability, CCK-8 |  | 25 µM, 72 h | inhibition | 0.21% |
| [2H]c1c([2H])c([C@]2([2H])CCCN2C(=O)C(C)(C)Oc2ccc3cn[nH]c3c2)c([2H])c([2H])c1C([2H])([2H])[2H] | CDC42BPB | binding, competition with immobilised ligand |  | 1 µM | remaining binding | 71% |
| CN(C)C(=O)c1sc2nc(-c3ccccc3)ccc2c1N | Mycobacterium tuberculosis | microbial growth | H37RV |  | IC50 | > 100 µM |
| N.N.[Cl][Pt][Cl] | KARPAS-299 | cell growth or viability, ATP luminescence |  | 72 h | IC50 | 1.53 µM |
| Cc1nn(C)cc1-c1nc2c(N3CCN(Cc4ccc(Cl)cc4)CC3)c(Cl)cnc2[nH]1 | MAST1 (Homo sapiens, UniProt Q9Y2H9) | binding, competition with immobilised ligand |  | 1 µM | remaining binding | 100% |
| COC(=O)c1cc(-c2cccc(NC(=O)Nc3cccc(C(F)(F)F)c3)c2)on1 | Klebsiella pneumoniae | microbial growth, broth dilution | BAA1705 |  | MIC | > 64 µg/mL |
| COc1ncccc1-c1cnn2ccc(N3CCN(C(=O)OC(C)C)CC3)nc12 | CDC42BPB | binding, competition with immobilised ligand |  | 1 µM | remaining binding | 90% |
| COC(=O)c1cc(-c2cccc(NC(=S)Nc3ccc(C)cc3)c2)on1 | Klebsiella pneumoniae | microbial growth, broth dilution | BAA1705 |  | MIC | > 64 µg/mL |
| Nc1c(C(=O)N2CCOCC2)sc2nc(-c3ccc(F)cc3)ccc12 | Mycobacterium tuberculosis | microbial growth | H37RV |  | IC50 | 34 µM |

Repeated from above:
| Compound | target or system | assay | test system | conditions | endpoint | value |
| --- | --- | --- | --- | --- | --- | --- |
| COc1cnc(OC)n2nc(NS(=O)(=O)c3c(OCC(F)F)cccc3C(F)(F)F)nc12 | L02 | cell growth or viability, CCK-8 |  | 25 µM, 72 h | inhibition | 0.21% |
| [2H]c1c([2H])c([C@]2([2H])CCCN2C(=O)C(C)(C)Oc2ccc3cn[nH]c3c2)c([2H])c([2H])c1C([2H])([2H])[2H] | CDC42BPB | binding, competition with immobilised ligand |  | 1 µM | remaining binding | 71% |
